{"data": "Results collected from several papers", "medium": "plasma", "note": "Lines come from different studies, so protocols differ."}
{"SMILES": "CCC(CC)n1c(Cc2ccco2)nc2cc(C(=O)N[C@@H](CC(=O)O)c3ccccc3)ccc21", "system": "male Sprague-Dawley rat", "conditions": "intraperitoneal, 10 mg/kg", "quantity": "MRT(0-inf)", "result": "2.4 h"}
{"SMILES": "CCCCC(=O)Nc1ccc(-c2ccc3ncn(CCC)c(=O)c3c2)cn1", "system": "male rat", "conditions": "oral, 10 mg/kg", "quantity": "MRT", "result": "1.09 h"}
{"SMILES": "CC(C)(C)C(=O)Nc1ccc2[nH]c(CN3CCC(N(CCCN4CCOCC4)CC4OC(n5cnc6c(N)ncnc65)C(O)C4O)CC3)nc2c1 (stereo not drawn)", "system": "male Sprague-Dawley rat", "conditions": "intravenous, 20 mg/kg", "quantity": "MRT(0-t)", "result": "0.74 h"}
{"SMILES": "Cc1cc2c(cc1O)C=C1C=CC(=O)C(C)(C)[C@H]1CC2", "system": "male Sprague-Dawley rat", "conditions": "oral, 20 mg/kg", "quantity": "MRT(0-t)", "result": "4.81 h"}
{"SMILES": "O=c1c(-c2ccc(Cl)c(CN3CCOCC3)c2)coc2cc(O)ccc12", "system": "male Sprague-Dawley rat", "conditions": "intravenous, 2 mg/kg", "quantity": "MRT", "result": "3.71 h"}
{"SMILES": "COc1cc(-c2cc(=O)c3ccc(OCCCn4c(Cl)nc5ccccc54)cc3o2)cc(OC)c1OC", "system": "male Sprague-Dawley rat", "conditions": "intravenous, 10 mg/kg", "quantity": "MRT(0-t)", "result": "2.76 h"}
{"SMILES": "CCCN(C)c1cc(C(F)(F)F)nc(SCCC(=O)NCc2ccco2)n1", "system": "male Wistar rat", "conditions": "intraperitoneal, 25 mg/kg, single dose", "quantity": "MRT", "result": "1.18 h"}
{"SMILES": "OC1(C(F)(F)F)CCN(c2nc(Nc3ccnc(C(F)(F)F)c3)nc(-c3cccc(C(F)(F)F)n3)n2)C1 (stereo not drawn)", "system": "Sprague-Dawley rat", "conditions": "intravenous, 1 mg/kg", "quantity": "MRT(0-inf)", "result": "20.3 h"}
{"SMILES": "CC1(C)C(NC(=O)C(=NOC2(C(=O)O)CC2)c2csc(N)n2)C(=O)N1OS(=O)(=O)O (stereo not drawn)", "system": "rat", "conditions": "intravenous, 10 mg/kg, single dose", "quantity": "MRT", "result": "0.55 h"}
{"SMILES": "CCC(CC)n1c(Cc2cccs2)nc2cc(C(=O)N[C@@H](CC(=O)O)c3ccccc3)ccc21", "system": "male Sprague-Dawley rat", "conditions": "intravenous, 1 mg/kg", "quantity": "MRT(0-inf)", "result": "0.92 h"}
{"SMILES": "Cc1cc(/C=C/C#N)cc(C)c1Oc1nc(NC2CCN(Cc3ccc(S(C)(=O)=O)cc3)CC2)nc2ncccc12", "system": "Sprague-Dawley rat", "conditions": "oral, 20 mg/kg", "quantity": "MRT(0-t)", "result": "3.37 h"}
{"SMILES": "C[C@@H](CO)NC(=O)c1cc(-c2ccc(Cl)cc2)nn(-c2cnn(C)c2)c1=O", "system": "male Wistar rat", "conditions": "intravenous", "quantity": "MRT", "result": "4.7 h"}
{"note": "Excerpt of the above:"}
{"SMILES": "O=c1c(-c2ccc(Cl)c(CN3CCOCC3)c2)coc2cc(O)ccc12", "system": "male Sprague-Dawley rat", "conditions": "intravenous, 2 mg/kg", "quantity": "MRT", "result": "3.71 h"}
